Measurements from different studies.
Compare with care: the assays were run in different laboratories. “And” joins repeats or separate records; there may be more than shown. ± gives the spread as reported.

Compound = O=C1NC2(CC2)COc2ncc(F)cc2[C@H]2COCCN2c2ccn3ncc1c3n2; test system = Sprague-Dawley rat, male, adrenals; conditions = oral, 10 mg/kg/day, 4 weeks dosing, end of recovery; measurement = organ-to-body weight ratio; value = 0.012 ± 0.002%
Compound = COc1ccccc1-c1ccncc1C(=O)Nc1nnc(OCc2ccc(Cl)cc2)s1; tested on = DLD-1 parental; conditions = 1 µM; scale = reference: untreated; measurement = colony survival; value = 97.9% and 94.6% and 97%
Compound = CCn1ccc(-c2cc([C@@H](C)NC(=O)c3cc(OCCN(C)C)ccc3C)c3ccccc3n2)n1; tested on = Vero E6; conditions = 500 µM; measurement = viability; value = 0.633% and 3.16% and 0.791%
Compound = CN[C@@H]1[C@H](O)[C@H](NC)[C@H]2O[C@]3(O)[C@H](O[C@@H]2[C@H]1O)O[C@H](C)C[C@H]3NC(=O)Cc1cc(Cl)ccn1; tested on = Mycobacterium ulcerans; test system = ATCC 35840; measurement = MIC; value = 0.4 µg/mL
Compound = O=C1C(NCCc2ccc(O)c(Br)c2)=CC2=NCCc3c[nH]c1c32; tested on = Babesia duncani; test = parasite growth, SYBR Green; conditions = 60 h, blood stage; measurement = IC50; value = 834 nM
Compound = CN[C@@H]1[C@H](O)[C@H](NC)[C@H]2O[C@]3(O)[C@H](O[C@@H]2[C@H]1O)O[C@H](C)C[C@H]3NC(=O)Cc1cscn1; tested on = Mycobacterium tuberculosis variant bovis BCG; test = microbial growth; test system = BCG; measurement = MIC; value = 1.6 µg/mL
Compound = CCc1nc2ccc(OC(F)(F)F)cn2c1C(=O)NCc1ccc2oc(-c3ccc(OC(F)(F)F)cc3)nc2c1; tested on = Mycolicibacterium smegmatis; measurement = MIC90; value = > 100 µM
Compound = Nc1ccccc1C(=O)OCC#CCOC(=O)c1ccccc1N; tested on = Aspergillus fumigatus; test = microbial growth, broth dilution; test system = MF5668; measurement = MIC50; value = 2 µg/mL
Compound = COC1=CC2=NCCc3c[nH]c(c32)C1=O; tested on = Babesia duncani; test = parasite growth, SYBR Green; conditions = 60 h, blood stage; measurement = IC50; value = 848 nM
Compound = CCc1ccn2c(C(=O)NC(C)c3ccccc3)c(C)nc2c1 (stereo not shown); tested on = Mycolicibacterium smegmatis; test = microbial growth; test system = MC2155; conditions = 2 mM; measurement = inhibition zone; value = 0 mm
Compound = Fc1ccc(-c2ccc(Cn3ccnc3)c(F)c2)c(F)c1; tested on = Mycobacterium tuberculosis variant bovis BCG; test = microbial growth; test system = BCG; measurement = MIC50; value = 3.4 µM
Compound = CCc1nc2cc(C(F)(F)F)ccn2c1C(=O)NCc1ccc2oc(-c3ccc(OC(F)(F)F)cc3)nc2c1; tested on = Mycolicibacterium smegmatis; measurement = MIC90; value = > 100 µM
Compound = CN[C@@H]1[C@H](O)[C@H](NC)[C@H]2O[C@]3(O)[C@H](O[C@@H]2[C@H]1O)O[C@H](C)C[C@H]3NC(=O)Cc1ccc(Cl)cn1; tested on = Mycobacterium ulcerans; test system = ATCC 35840; measurement = MIC; value = 0.2 to 0.4 µg/mL
Compound = COc1ccccc1-c1n[nH]c2nc(N[C@H]3CC[C@H](NS(=O)(=O)CC(C)C)CC3)ncc12; test = bead binding, competition bead pull-down, measured: LINJ.35.3280; test system = Leishmania donovani extract; conditions = 10 µM; scale = reference: vehicle; measurement = relative abundance; value = 0.84
Compound = Cc1ccc(CNC(=O)Cc2c(C)nc3ccc(C)cn23)cc1; tested on = Mycobacterium tuberculosis variant bovis BCG; test = microbial growth; test system = BCG; conditions = 6 days; measurement = MIC; value = 6.1 µM
Compound = Cc1nc2cc(C(F)(F)F)ccn2c1C(=O)NCc1ccc2oc(-c3ccc(OC(F)(F)F)cc3)nc2c1; tested on = Mycolicibacterium smegmatis; conditions = 72 h; measurement = MIC; value = > 50 µM
Compound = COc1ccc2cc(-c3ccc(Cn4ccnc4)cc3)ccc2c1; tested on = Mycobacterium tuberculosis variant bovis BCG; test = microbial growth; test system = BCG; measurement = MIC50; value = 2.4 µM
Compound = CC(C)CC(C(=O)N1CC2(CC1C#N)C(=O)Nc1ccccc12)N(C)C(=O)c1cc2c(F)cc(F)c(F)c2[nH]1 (stereo not shown); tested on = Human coronavirus 229E; test = cytopathic effect; test system = MRC5; conditions = 1.393 nM; measurement = inhibition; value = 20.7%
Compound = CCc1nc2ccc(C(F)(F)F)cn2c1C(=O)NCc1ccc2oc(-c3ccc(OC(F)(F)F)cc3)nc2c1; tested on = Mycolicibacterium smegmatis; conditions = 72 h; measurement = MIC; value = > 100 µM
Compound = CN[C@@H]1[C@H](O)[C@H](NC)[C@H]2O[C@]3(O)[C@H](O[C@@H]2[C@H]1O)O[C@H](C)C[C@H]3NC(=O)Cc1ccc(F)cn1; tested on = Mycobacterium ulcerans; test system = ATCC 35840; measurement = MIC; value = 0.8 to 1.6 µg/mL
Compound = Fc1ccc(-c2ccc(Cn3ccnc3)c(F)c2)cc1F; tested on = Mycobacterium tuberculosis variant bovis BCG; test = microbial growth; test system = BCG; measurement = MIC50; value = 2.7 µM
Compound = Cc1nc2cc(OC(F)(F)F)ccn2c1C(=O)NCc1ccc2oc(-c3ccc(Cl)cc3)nc2c1; tested on = Mycolicibacterium smegmatis; measurement = MIC90; value = > 100 µM
Compound = COc1ccccc1-c1n[nH]c2nc(NC3CCN(C(=O)Cc4ccc(F)cc4F)CC3)ncc12; test = bead binding, competition bead pull-down, measured: LINJ.08.1220; test system = Leishmania donovani axenic amastigote extract; conditions = 10 µM; scale = reference: vehicle; measurement = relative abundance; value = 1.06
Compound = Cc1ccc(S(=O)(=O)n2cc3c4c2C(=O)C(N)=CC4=NCC3)cc1; tested on = Babesia duncani; test = parasite growth, SYBR Green; conditions = 60 h, blood stage; measurement = IC50; value = 1150 nM
Compound = Cc1cc(C(=O)Nc2nc3cccc(C)c3n2[C@H]2CCCCN(C(=O)/C=C/CN(C)C)C2)ccn1; tested on = Trypanosoma brucei; test = cell growth, Alamar Blue; test system = 2T1 overexpressing Tb927.5.790; scale = reference: parental 2T1; measurement = EC50 fold shift; value = 0.8 fold and 0.62 fold
Compound = Cc1cc(Oc2nc(N3CC[C@@H](c4ccncc4)C3)ncc2F)[nH]n1; tested on = Mycobacterium tuberculosis; test = OD; test system = H37Rv PurF CRISPRi knockdown; conditions = 7e-06 µM, with: anhydrotetracycline low; measurement = normalised growth; value = 97% and 99% and 102%
Compound = FC(F)(F)c1ccc(-c2ccc(Cn3ccnc3)cc2)cc1; tested on = Mycobacterium tuberculosis variant bovis BCG; test = microbial growth; test system = BCG; measurement = MIC50; value = 2.4 µM
Compound = Cc1nc2ccc(C(F)(F)F)cn2c1C(=O)NCc1ccc2oc(-c3ccc(OC(F)(F)F)cc3)nc2c1; tested on = Mycolicibacterium smegmatis; conditions = 72 h; measurement = MIC; value = > 100 µM
Compound = Fc1ccc(F)c(-c2ccc(Cn3ccnc3)c(F)c2)c1; tested on = Mycobacterium tuberculosis variant bovis BCG; test = microbial growth; test system = BCG; measurement = MIC50; value = 2.9 µM
Compound = Cc1nc2ccc(OC(F)(F)F)cn2c1C(=O)NCc1ccc2oc(-c3ccc(OC(F)(F)F)cc3)nc2c1; tested on = Mycolicibacterium smegmatis; measurement = MIC90; value = > 100 µM
Compound = O=C1C(NCCc2ccc(O)cc2)=CC2=NCCc3c(Br)[nH]c1c32; tested on = Babesia duncani; test = parasite growth, SYBR Green; conditions = 60 h, blood stage; measurement = IC50; value = 4800 nM
Compound = CCn1ccc(-c2cc(C(C)NC(=O)c3cc(N4CC5CC4CN5C)ccc3C)c3ccccc3n2)n1 (stereo not shown); tested on = Vero E6; conditions = 15.62 µM; measurement = viability; value = 80% and 78.5% and 81%
Compound = CCc1nc2cc(OC(F)(F)F)ccn2c1C(=O)NCc1ccc2oc(-c3ccc(OC(F)(F)F)cc3)nc2c1; tested on = Mycolicibacterium smegmatis; measurement = MIC90; value = > 100 µM
Compound = O=C1C(=O)c2[nH]cc3c2C(=C1I)NCC3; tested on = Babesia duncani; test = parasite growth, SYBR Green; conditions = 60 h, blood stage; measurement = IC50; value = 27500 nM
Compound = CN[C@@H]1[C@H](O)[C@H](NC)[C@H]2O[C@]3(O)[C@H](O[C@@H]2[C@H]1O)O[C@H](C)C[C@H]3NC(=O)Cc1ccccn1; tested on = Mycobacterium tuberculosis variant bovis BCG; test = microbial growth; test system = BCG; measurement = MIC; value = 0.8 to 1.6 µg/mL
Compound = CC(C)C[C@H](NC(=O)[C@H](CC(=O)O)NC(=O)[C@@H](NC(=O)[C@H](CCC(=O)O)NC(=O)[C@H](CCCCN)NC(=O)[C@H](Cc1ccc(O)cc1)NC(=O)[C@H](CCCCN)NC(=O)[C@H](Cc1c[nH]cn1)NC(=O)CNC(=O)CN)[C@@H](C)O)C(N)=O; tested on = HCV IRES RNA; test = RNA cleavage, fluorescence; test system = hepatitis C virus; conditions = 10 µM, with: H2O2 and ascorbate 1 mM, fluorescein-labelled HCV RNA 1 µM; measurement = initial rate; value = 423 ± 105 nM/min
Compound = c1cn(Cc2ccc(-c3ccc4occc4c3)cc2)cn1; tested on = Mycobacterium tuberculosis variant bovis BCG; test = microbial growth; test system = BCG; measurement = MIC50; value = 2.6 µM

A few entries again:
Compound = Cc1ccc(S(=O)(=O)n2cc3c4c2C(=O)C(N)=CC4=NCC3)cc1; tested on = Babesia duncani; test = parasite growth, SYBR Green; conditions = 60 h, blood stage; measurement = IC50; value = 1150 nM
Compound = Cc1nc2ccc(C(F)(F)F)cn2c1C(=O)NCc1ccc2oc(-c3ccc(OC(F)(F)F)cc3)nc2c1; tested on = Mycolicibacterium smegmatis; conditions = 72 h; measurement = MIC; value = > 100 µM
Compound = c1cn(Cc2ccc(-c3ccc4occc4c3)cc2)cn1; tested on = Mycobacterium tuberculosis variant bovis BCG; test = microbial growth; test system = BCG; measurement = MIC50; value = 2.6 µM
Compound = CN[C@@H]1[C@H](O)[C@H](NC)[C@H]2O[C@]3(O)[C@H](O[C@@H]2[C@H]1O)O[C@H](C)C[C@H]3NC(=O)Cc1cc(Cl)ccn1; tested on = Mycobacterium ulcerans; test system = ATCC 35840; measurement = MIC; value = 0.4 µg/mL
